# Experimental data gathered from unrelated publications.
# A part holds a random share of what one study measured. Substitutions count along the parent as printed.

# Set 1
# Target: Sal-like protein 4, full length isoform A (SALL4, Homo sapiens, UniProt Q9UJQ4, residues 1-1053)
# Chain of UniProt Q9UJQ4 (whole entry, looked up): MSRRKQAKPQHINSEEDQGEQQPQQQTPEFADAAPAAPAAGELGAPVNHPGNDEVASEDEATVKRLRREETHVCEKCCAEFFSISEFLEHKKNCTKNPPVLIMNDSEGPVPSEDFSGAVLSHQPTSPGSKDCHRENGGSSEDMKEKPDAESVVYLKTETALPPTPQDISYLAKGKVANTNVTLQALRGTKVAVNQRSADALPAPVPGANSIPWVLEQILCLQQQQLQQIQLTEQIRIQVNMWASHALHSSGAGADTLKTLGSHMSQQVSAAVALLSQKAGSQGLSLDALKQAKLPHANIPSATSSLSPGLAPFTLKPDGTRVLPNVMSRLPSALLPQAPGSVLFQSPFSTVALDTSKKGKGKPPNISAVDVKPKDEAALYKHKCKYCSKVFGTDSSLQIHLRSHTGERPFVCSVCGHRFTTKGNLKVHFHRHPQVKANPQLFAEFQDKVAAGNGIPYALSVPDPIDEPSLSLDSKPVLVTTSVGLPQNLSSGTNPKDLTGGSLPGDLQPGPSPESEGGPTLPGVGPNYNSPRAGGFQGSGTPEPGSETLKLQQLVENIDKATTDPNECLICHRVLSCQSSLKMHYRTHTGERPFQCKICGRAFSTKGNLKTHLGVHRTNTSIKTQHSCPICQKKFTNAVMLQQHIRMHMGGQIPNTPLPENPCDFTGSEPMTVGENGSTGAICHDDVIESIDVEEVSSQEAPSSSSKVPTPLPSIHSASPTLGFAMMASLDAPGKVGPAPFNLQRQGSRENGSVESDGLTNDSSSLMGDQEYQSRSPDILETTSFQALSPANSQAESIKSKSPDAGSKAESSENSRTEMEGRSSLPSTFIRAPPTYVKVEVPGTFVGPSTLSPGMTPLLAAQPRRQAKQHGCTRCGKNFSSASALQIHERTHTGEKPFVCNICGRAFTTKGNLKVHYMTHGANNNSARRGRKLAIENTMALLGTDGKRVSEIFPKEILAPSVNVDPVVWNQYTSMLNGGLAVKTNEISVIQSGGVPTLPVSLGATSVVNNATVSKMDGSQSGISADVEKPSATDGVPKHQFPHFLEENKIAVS
# Technique: universal PBM
# Molecule type: double-stranded DNA, one strand shown
# Sample: in vitro
# Concentration: 600 nM
# Setting: 8-mer, flanks averaged, mean of replicates
# Direction: higher = stronger binding
Strand,E-score
CAAGCTAG,-0.16
CTGACACA,0.0104
GGCACCTA,-0.256
GTTTCTAA,0.155
AAGTCAAT,0.162
AACAGACT,0.0818
AGATGACG,-0.0808
AACGCGTC,-0.0853

# Set 2
# Target: Interferon regulatory factor 5, full length, phosphomimetic (IRF5, Homo sapiens, UniProt Q13568-2, residues 1-514, K96S/S451D/S453D/S456D/S462D)
# Technique: protein-binding microarray
# Molecule type: double-stranded DNA, one strand shown
# Sample: in vitro
# Concentration: 250 nM
# Setting: 60-bp whole probe
# Together with: salmon DNA 0.4 mg/ml
# Baseline: random background probes
# Direction: higher = stronger binding
# Shared flanks, not repeated: GCCTAGCAC … GTCTTGATTCGCTTGACGCTGCTG
Strand,log fluorescence [z-score]
TTAGGACTGCTACTGTTTTAGTGCTAG,-0.0469
GCATCTCGGAGATCTCGAAGCGTGCTA,-0.149
TTAGGTTTCGGTATGGGTTAGTGCTAG,10.2
TCACGTTTACATTTTCCACTGTGCTAG,0.862
GACGGTTTCAGTATCGGGACGTGCTAG,5.5
TTTGCTTTAGTCATTCACTGAGTGCTA,0.602
TTAGATTTCGGGTTTTGATTAGTGCTA,4.67

# Set 3
# Target: CCNA1, cyclin fold, Cln2 fusion (human)
# Technique: yeast growth competition, sequencing
# Sample: yeast
# Setting: weak parent motif
# Baseline: not given
# Direction: higher = stronger binding
# Starting sequence: E2F1 docking peptide (human); PPVKRRLDLETDH
Variant,normalised enrichment score
P2V,0.325
T11K,0.372
R6K,0.289
L7W,0.339
D12L,0.309
L7G,0.178
L7A,0.216

# Further values, each from its own experiment
Substance,target,assay,test system,setting,how to read,quantity,value
"PhoQ, residues 284 288 289 292 302 303 SIHMAM","PhoP, residues 12 14 15 18 19 AWHSL (Escherichia coli, UniProt P23836)","Sort-seq, item: YFP reporter",E. coli,"PhoQ-PhoP variant library, together with: 10 µM Mg2+","baseline: high Mg2+ state, higher = stronger signaling",fold induction,1.93
